Published values from different studies.
Every numbered part comes from another study and shows a few of its results, in no order. Positions count from the first letter of the parent shown.

Set 1 — technique: DHFR PCA, deep sequencing; sample: yeast; together with: (+)-ABA 2500 µM; baseline: wild-type fitted maximum; direction: higher = stronger binding
Target: ABI1, truncated, D143A, DHFR fusion (Arabidopsis thaliana)
Notes: methotrexate growth selection, single substitutions
Starting sequence: PYL1, truncated, DHFR fusion (Arabidopsis thaliana); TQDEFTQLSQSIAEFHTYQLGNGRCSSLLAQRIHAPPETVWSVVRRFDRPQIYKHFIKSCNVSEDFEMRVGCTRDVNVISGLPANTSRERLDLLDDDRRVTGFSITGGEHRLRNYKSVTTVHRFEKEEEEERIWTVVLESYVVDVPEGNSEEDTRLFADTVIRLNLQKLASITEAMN
`S104K`: “relative binding score” 95.6%.
For `D92F`, “relative binding score” read 85.5%.
For `S140H`, “relative binding score” read 55.5%.
For `R111Q`, “relative binding score” read 86.1%.
Under “relative binding score”, `R45A` is recorded as 88%.
Under “relative binding score”, `K126L` is recorded as 99.8%.
For `T160W`, “relative binding score” read 88.5%.
For `E174P`, “relative binding score” read 91%.
`L164I`: “relative binding score” 96.9%.
`L29P`: “relative binding score” 3.07%.
`R98N`: “relative binding score” 102%.
For `R132P`, “relative binding score” read 111%.
Under “relative binding score”, `V145Y` is recorded as 76.1%.
Under “relative binding score”, `T120F` is recorded as 8.44%.
`F47A`: “relative binding score” 23.6%.
Under “relative binding score”, `H110N` is recorded as 111%.

Set 2 — target: CCND1, cyclin fold, Cln2 fusion (human); technique: yeast growth competition, sequencing; sample: yeast; notes: weak parent motif; baseline: not given; direction: higher = stronger binding
Starting sequence: NPAT docking peptide (human); PCHRRVLCFDSTT
For `V6A`, “normalised enrichment score” read 0.109.
For `R5A`, “normalised enrichment score” read -0.0305.
`D10A`: “normalised enrichment score” -0.156.
For `R4A`, “normalised enrichment score” read 0.597.
For `F9L`, “normalised enrichment score” read -0.308.
For `T13A`, “normalised enrichment score” read -0.574.
`S11A` — result for “normalised enrichment score”: -0.473.

Set 3 — technique: RNA Bind-n-Seq; form: RNA; sample: in vitro; tested at: 365 nM; baseline: no-protein control; direction: higher = stronger binding
Target: RNA binding protein fox-1 homolog 2, RRM domain, GST-SBP tag (RBFOX2, Homo sapiens, UniProt O43251-10, residues 100-194)
Notes: natural RNA segment, single round, ends assumed
All sequences stand within: GGGAGUUCUACAGUCCGACGAUC … UGGAAUUCUCGGGUGCCAA
Target sequence (chain): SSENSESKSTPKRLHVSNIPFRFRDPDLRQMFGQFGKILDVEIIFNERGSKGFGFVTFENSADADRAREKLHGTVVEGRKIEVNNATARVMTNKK
For `UAAAUCCGCCAGGUCACGUGCAGACAAAGCUGUGGCUGCGAGAGUUGGCUGGCCUCUUGGACCAGAAGCCAUCUCCAUAUCCUCAUGAGCGAUUCCAUAUCUCCACUCAG`, “RBNS enrichment (R)” read 0.266.
`ACUUUACUUUGAAGCAAACGUCUUUUUUUUAAAGAUUGCUUCACCAAUGAUGCUGUCAGAUAUAUCUGCUUUCUCAAGUUUAAAAGAAUUCAAAUUAACUUCCUUUGAGU`: “RBNS enrichment (R)” 0.373.
Under “RBNS enrichment (R)”, `UGUGGCGCUUUAGGGUGCUGGACUGUAUGGCUGAGGGCUGGUUGGGUUCCUCUAUUGGCUCUGCUCAAAUGUUGCAGGAUACAUAGCCCCAAAGAUGGUCUAGGAGCAAU` is recorded as 0.885.
`CAGGAGAGGAGUAGGUAAUGUUGGCCUUCAGUGGUAGCAGUCUUCUGGGGCAGGGGUCAGCCACUGUCCCAAUCAGUCCUUUCUGAAGGAGAAACCCAUUCCACAUUAAC` — result for “RBNS enrichment (R)”: 0.302.
`CUGAAUGAUUUCCAAAGAGAAAAAAAGUUUGCCAGAAGUUUGUCAAGUCAACCAAUGUAGAAAGCUUUGCUUAUGGUAAUAAAAAUGGCUCAUACUUAUAUAGCACUUAC` — result for “RBNS enrichment (R)”: 0.674.
`UAUCUUCCAUCGGUGGCCAAGGGAGUGUGGGUGGCUGUUCCCAGCACAUAGUAGGUGCUUGGUAAAAUAUCUGUGGUACUGAAUGUUGAGCACAGGUGCCCAAGUCAGAG`: “RBNS enrichment (R)” 2.87.
`UGGUAAACAUGUGAAGUCCUUUGGCUUAGUCAUACUUCAUAACUUUUGAACGUUGGGUUUUUUGUUGGAAGAAACUUGGAUGAAUCUGUCAUGUCAUUAACAGAACUGAA` — result for “RBNS enrichment (R)”: 0.501.
`UGUCCUGGUCACUUGUACUGGUUACAGAGCCUCUCAGCGAUGGCUACACCACCCUUCUCACCCUGCCUCCAUCCCCAAAUCUCAAGCAACACAAUCAGCGGGUACUACCU` — result for “RBNS enrichment (R)”: 0.562.
Under “RBNS enrichment (R)”, `ACCAAAAUGGCUUAUCGUCAUUCAAAAAACCUGUGACAUAGGCAGGCCUUGGAAUUUUGCUCCUUUAGUGGUAAGCAUGGGGCAUGGUUUGCUUUGGGGGGAGGAUGUUA` is recorded as 2.61.
`UUUUCCAGUGAGGUUGUAGACCCUGCAAACCUAACUGUAACAUAGCCUUCACAAGCAUGAUAAACCCUCCCUGUUGUGUAUAGUAACGGUCUCAUUUUAUAGUCCACCUU` — result for “RBNS enrichment (R)”: 1.13.
For `CAGCGGAUUGCUGUGGGCUGGUUCAUAAAGUGAAACUAAUGAAUCUAUCUCUUUGUCACUUGCUGGUACAGCUAGUUUGUUUCACUUGCACAUUUGUACAUAUAUCUAAU`, “RBNS enrichment (R)” read 0.479.
For `CUUGGAUCUGGAAAGAUAACUCAACAGUCAAGAGUACUGGUUGUUCUUCCCCAAGGACCAAGGUUCAAUUCCUAGCACCCAUAUGACUGCUCACAGGCACCUGUAACUCC`, “RBNS enrichment (R)” read 1.02.

Set 4 — technique: competition protein-binding microarray; form: double-stranded DNA, one strand shown; sample: in vitro; tested at: 2 µM; together with: Pho4 competitor, 0.05 µM; direction: higher = stronger binding; all sequences stand within: … GTCTTGATTCGCTTGACGCTGCTG
Target: Centromere-binding protein 1, full length, His-tagged (CBF1, Saccharomyces cerevisiae, UniProt P17106, residues 1-351)
Sequence of UniProt P17106 (whole entry, looked up): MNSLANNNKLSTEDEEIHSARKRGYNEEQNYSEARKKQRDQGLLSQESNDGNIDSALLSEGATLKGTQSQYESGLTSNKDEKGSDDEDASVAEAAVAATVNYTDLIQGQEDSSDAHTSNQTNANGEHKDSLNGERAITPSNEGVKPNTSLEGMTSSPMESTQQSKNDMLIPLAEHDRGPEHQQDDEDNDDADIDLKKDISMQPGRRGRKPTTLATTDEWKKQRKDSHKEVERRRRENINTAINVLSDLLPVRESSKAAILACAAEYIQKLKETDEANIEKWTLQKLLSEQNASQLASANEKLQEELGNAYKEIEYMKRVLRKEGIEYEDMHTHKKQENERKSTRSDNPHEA
Notes: whole 60-bp probe, lowest competitor level
`AGAAATGAGTGGAAGCGCGTGGAAGCCCGTCTAGCA` has a fluorescence intensity of 52.8 a.u.
For `TCTGTGCTGTTCAATAACGTGGAATCCATTTTTGCT`, the fluorescence intensity was 98.1 a.u.
The fluorescence intensity of `CCCAAGAACAGGGCCCTCGTGGTCGTCAAATCTGTG` is reported as 116 a.u.
For `CATACCCAACCTTGCATAGTGGGTGAAGATATTTGT`, the fluorescence intensity was 77.2 a.u.
With `TATGACCGTCCGACCACCGTGACTCGTAACAAAGTC` the fluorescence intensity was 150 a.u.
`AATCTACGGTTCCAACACGCACACTTTCATCCTAGA` has a fluorescence intensity of 74.4 a.u.
For `CTAACGAAGGTTTGGCGGGTGGGTGACAAGCCAAGT`, the fluorescence intensity was 65.1 a.u.
`GGCGAATGGAAAAATCACCTGGCAAGTCATTTCATC` has a fluorescence intensity of 112 a.u.
The fluorescence intensity of `TAATAGGCCTGCTGGCACGTTGTTGAATGGCAGATG` is reported as 114 a.u.
`CTTTCCCGATCTTTTCACGTGCGGTTAGCACATTTG` gave a fluorescence intensity of 765 a.u.
`CAGATGGTTCTCCATCACGTCTCTGATTATGCCTAT` gave a fluorescence intensity of 91.6 a.u.
With `ATACGTATGTGTTCGTACGTGCGATCCGCAAGGTCT` the fluorescence intensity was 75.4 a.u.
For `GGGCTGTAGCTTGGCGACGTGGGACAGTAGGAAGGC`, the fluorescence intensity was 67.8 a.u.
`ACCTTGGTCCAAGGTCACGAGGAGCTGTCCAAGGTC` has a fluorescence intensity of 641 a.u.
`CATTGCCGGCCCGGCCACGTGCAAAGTCTGGTTGAG` gave a fluorescence intensity of 1270 a.u.
The fluorescence intensity of `TGCGCAACAACTTTTCACGTGCACTTATGTCTAGAA` is reported as 1210 a.u.
For `TCTAGCATTTCCATACAGGTGATAGTATCAAATTGT`, the fluorescence intensity was 117 a.u.

Set 5 — technique: universal PBM; form: double-stranded DNA, one strand shown; sample: in vitro; tested at: not given; direction: higher = stronger binding
Target: Sal-like protein 4, full length isoform B (SALL4, Homo sapiens, UniProt Q9UJQ4-2, residues 1-616)
Notes: 8-mer, flanks averaged, mean of replicates
The E-score of `AACAGGGA` is reported as 0.0279.
For `CGTCGAAC`, the E-score was -0.185.
`CCGATGCA` gave an E-score of -0.2.
`TATCAAGA` has an E-score of 0.182.
With `CGTATCAC` the E-score was -0.0757.
With `AACACGGC` the E-score was -0.136.
`ATGCACCA` gave an E-score of 0.0493.
With `CACTGGAG` the E-score was -0.226.
`TCAATCAA` has an E-score of 0.159.
`TCACTCAA` gave an E-score of 0.0655.
`AGACAGCG` has an E-score of -0.195.
`TCTTTGAA` has an E-score of 0.11.
The E-score of `ACGTGGTC` is reported as -0.226.
`GCAAGTCC` gave an E-score of -0.21.
For `AAGTCACC`, the E-score was -0.0989.
With `AACGTTTA` the E-score was 0.144.
`AGGTCCCG` has an E-score of -0.248.
`CTATGAAA` has an E-score of 0.248.
`ATGTAAAG` has an E-score of 0.155.
For `AGTGGTGA`, the E-score was -0.00787.
The E-score of `AGTAGCTA` is reported as 0.0583.
With `ACATAACT` the E-score was 0.29.
For `CGAACGCG`, the E-score was -0.18.
For `ATTTCGAC`, the E-score was 0.00219.

Some of these lines once more (set 3):
Under “RBNS enrichment (R)”, `UGUGGCGCUUUAGGGUGCUGGACUGUAUGGCUGAGGGCUGGUUGGGUUCCUCUAUUGGCUCUGCUCAAAUGUUGCAGGAUACAUAGCCCCAAAGAUGGUCUAGGAGCAAU` is recorded as 0.885.
For `CUUGGAUCUGGAAAGAUAACUCAACAGUCAAGAGUACUGGUUGUUCUUCCCCAAGGACCAAGGUUCAAUUCCUAGCACCCAUAUGACUGCUCACAGGCACCUGUAACUCC`, “RBNS enrichment (R)” read 1.02.
`UAUCUUCCAUCGGUGGCCAAGGGAGUGUGGGUGGCUGUUCCCAGCACAUAGUAGGUGCUUGGUAAAAUAUCUGUGGUACUGAAUGUUGAGCACAGGUGCCCAAGUCAGAG`: “RBNS enrichment (R)” 2.87.
`CAGGAGAGGAGUAGGUAAUGUUGGCCUUCAGUGGUAGCAGUCUUCUGGGGCAGGGGUCAGCCACUGUCCCAAUCAGUCCUUUCUGAAGGAGAAACCCAUUCCACAUUAAC` — result for “RBNS enrichment (R)”: 0.302.
For `CAGCGGAUUGCUGUGGGCUGGUUCAUAAAGUGAAACUAAUGAAUCUAUCUCUUUGUCACUUGCUGGUACAGCUAGUUUGUUUCACUUGCACAUUUGUACAUAUAUCUAAU`, “RBNS enrichment (R)” read 0.479.
`CUGAAUGAUUUCCAAAGAGAAAAAAAGUUUGCCAGAAGUUUGUCAAGUCAACCAAUGUAGAAAGCUUUGCUUAUGGUAAUAAAAAUGGCUCAUACUUAUAUAGCACUUAC` — result for “RBNS enrichment (R)”: 0.674.
Under “RBNS enrichment (R)”, `ACCAAAAUGGCUUAUCGUCAUUCAAAAAACCUGUGACAUAGGCAGGCCUUGGAAUUUUGCUCCUUUAGUGGUAAGCAUGGGGCAUGGUUUGCUUUGGGGGGAGGAUGUUA` is recorded as 2.61.
`UGUCCUGGUCACUUGUACUGGUUACAGAGCCUCUCAGCGAUGGCUACACCACCCUUCUCACCCUGCCUCCAUCCCCAAAUCUCAAGCAACACAAUCAGCGGGUACUACCU` — result for “RBNS enrichment (R)”: 0.562.
`UGGUAAACAUGUGAAGUCCUUUGGCUUAGUCAUACUUCAUAACUUUUGAACGUUGGGUUUUUUGUUGGAAGAAACUUGGAUGAAUCUGUCAUGUCAUUAACAGAACUGAA` — result for “RBNS enrichment (R)”: 0.501.
For `UAAAUCCGCCAGGUCACGUGCAGACAAAGCUGUGGCUGCGAGAGUUGGCUGGCCUCUUGGACCAGAAGCCAUCUCCAUAUCCUCAUGAGCGAUUCCAUAUCUCCACUCAG`, “RBNS enrichment (R)” read 0.266.
